Results of several laboratories.
Lines come from different studies, so protocols differ.
Organism: Leishmania donovani

With C[C@@H]1[C@H](O)[C@@H](C)/C=C/C=C/C=C/C=C/C=C/C=C/C=C/[C@H](O[C@@H]2O[C@H](C)[C@@H](O)[C@H](N)[C@@H]2O)C[C@@H]2O[C@](O)(C[C@@H](O)C[C@@H](O)[C@H](O)CC[C@@H](O)C[C@@H](O)CC(=O)O[C@H]1C)C[C@H](O)[C@H]2C(=O)O the IC50 was 0.08 to 0.13 µM (growth; MHOM/SD/00/1S axenic amastigotes; in dark).
CCCCCCCCCCCCCCCCOP(=O)([O-])OCC[N+](C)(C)C gave an IC50 of 11.8 µM (parasite growth, SYBR Green; RAW264.7; intracellular, amastigote).
N=C(N)c1ccc(OCCCCCOc2ccc(C(=N)N)cc2)cc1 gave an IC50 of 6.53 µM (parasite growth; THP-1; intracellular, amastigote).
The IC50 of O=Cc1c[nH]c2ccc([N+](=O)[O-])cc12 is reported as greater than 10 µM (parasite growth, resazurin; THP-1; 24 h, intracellular, amastigote).
With O=Cc1cc2c(cc1O)[nH]c1ccc(O)cc12 the IC50 was greater than 40 µg/mL (viability; axenic amastigotes; 72 h).
C[C@@H]1[C@H](O)[C@@H](C)/C=C/C=C/C=C/C=C/C=C/C=C/C=C/[C@H](O[C@@H]2O[C@H](C)[C@@H](O)[C@H](N)[C@@H]2O)C[C@@H]2O[C@](O)(C[C@@H](O)C[C@@H](O)[C@H](O)CC[C@@H](O)C[C@@H](O)CC(=O)O[C@H]1C)C[C@H](O)[C@H]2C(=O)O has an IC50 of 3.07 µM (macrophages, intracellular amastigotes; 72 h).
O=C1CSC(=S)N1/N=C/c1cn(Cc2ccccc2)c2ccc([N+](=O)[O-])cc12 gave an IC50 of greater than 10 µM (parasite growth, resazurin; THP-1; 72 h, intracellular, amastigote).
The IC50 of O=Cc1cc(Cn2ccc(=O)[nH]c2=O)ccc1O is reported as greater than 100 µM (parasite growth, SYBR Green; RAW264.7; intracellular, amastigote).
For O=C1NC(=S)S/C1=C\c1cn(Cc2ccccc2)c2ccc([N+](=O)[O-])cc12, the IC50 was 3.01 µM (parasite growth, resazurin; THP-1; 72 h, intracellular, amastigote).
N=C(N)c1ccc(OCCCCCOc2ccc(C(=N)N)cc2)cc1 gave an IC50 of 2.9 µM (viability, Alamar blue; promastigote; 72 h, 26 °C).
For CCn1cc(C(=O)NCCNCCO)c(=O)c2cc(OC)c(OCc3cc(F)cc(F)c3)cc21, the IC50 was greater than 20 µM (Bob promastigotes; 120 h).
The IC50 of Cc1nn(Cc2ccc(O)c(C=O)c2)c(=O)[nH]c1=O is reported as 30 µM (parasite growth, SYBR Green; RAW264.7; intracellular, amastigote).
N=C(N)c1ccc(OCCCCCOc2ccc(C(=N)N)cc2)cc1 has an IC50 of 0.8 µg/mL (Alamar Blue; promastigotes; 72 h, 26 °C).
The IC50 of O=C1NC(=S)S/C1=C\c1c[nH]c2ccc([N+](=O)[O-])cc12 is reported as greater than 10 µM (parasite growth, resazurin; THP-1; 72 h, intracellular, amastigote).
COc1ccc2c(c1)c1cc(C=O)c(OC)cc1n2C gave an IC50 of greater than 40 µg/mL (viability; axenic amastigotes; 72 h).
O=[N+]([O-])c1ccc2[nH]ccc2c1 gave an IC50 of greater than 10 µM (parasite growth, resazurin; THP-1; 24 h, intracellular, amastigote).
C[C@@H]1[C@H](O)[C@@H](C)/C=C/C=C/C=C/C=C/C=C/C=C/C=C/[C@H](O[C@@H]2O[C@H](C)[C@@H](O)[C@H](N)[C@@H]2O)C[C@@H]2O[C@](O)(C[C@@H](O)C[C@@H](O)[C@H](O)CC[C@@H](O)C[C@@H](O)CC(=O)O[C@H]1C)C[C@H](O)[C@H]2C(=O)O gave an IC50 of 0.09 µg/mL (parasite growth, resazurin; 72 h, promastigote).
O=C1CSC(=S)N1/N=C/c1cn(Cc2cccc(Cl)c2)c2ccc([N+](=O)[O-])cc12 has an IC50 of greater than 10 µM (parasite growth, resazurin; THP-1; 72 h, intracellular, amastigote).
C[C@@H]1N[C@H](CCCCCCCCCCc2cc(CCCCCCCCCC[C@H]3CC[C@@H](O)[C@@H](C)N3)c[n+]3c2CCC3)CC[C@H]1O has an IC50 of 2.14 µg/mL (parasite growth, resazurin; 72 h, amastigote).
C#CCn1cc(C=O)c2cc([N+](=O)[O-])ccc21 has an IC50 of greater than 10 µM (parasite growth, resazurin; THP-1; 72 h, intracellular, amastigote).
With O=Cc1cc(Cn2cc(F)c(=O)[nH]c2=O)ccc1O the IC50 was greater than 100 µM (parasite growth, SYBR Green; RAW264.7; intracellular, amastigote).

Repeated from above:
N=C(N)c1ccc(OCCCCCOc2ccc(C(=N)N)cc2)cc1 gave an IC50 of 6.53 µM (parasite growth; THP-1; intracellular, amastigote).
